Measurements gathered from unrelated publications.
Lines come from different studies, so protocols differ. Square brackets hold non-standard residues; d marks the D form.
Mapk14 N159K/E160S/E163T: Mapk14 N159K/E160S/E163T, pT180, pY182 (Rattus norvegicus, UniProt P70618)
Chain of UniProt P70618 (whole entry, unmodified, looked up): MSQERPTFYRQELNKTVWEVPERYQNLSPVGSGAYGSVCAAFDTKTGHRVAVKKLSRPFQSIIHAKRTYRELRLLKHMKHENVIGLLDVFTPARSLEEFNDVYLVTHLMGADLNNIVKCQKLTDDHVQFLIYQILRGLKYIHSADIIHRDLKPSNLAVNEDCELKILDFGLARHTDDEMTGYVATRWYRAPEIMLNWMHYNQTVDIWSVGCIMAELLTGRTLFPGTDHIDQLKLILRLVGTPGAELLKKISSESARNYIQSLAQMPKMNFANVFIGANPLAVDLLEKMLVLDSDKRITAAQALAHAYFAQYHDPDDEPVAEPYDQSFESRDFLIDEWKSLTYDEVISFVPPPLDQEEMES
RPLP2: RPLP2 (Homo sapiens, UniProt P05387)
Chain of UniProt P05387 (whole entry, looked up): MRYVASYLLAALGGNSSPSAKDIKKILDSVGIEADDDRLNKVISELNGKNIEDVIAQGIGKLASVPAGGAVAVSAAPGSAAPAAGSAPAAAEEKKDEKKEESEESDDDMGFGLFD
B1: CDC34 171-270 (Saccharomyces cerevisiae, UniProt P14682); chain IPKGFIMPTSESAYISQSKLDEPESNKDMADNFWYDSDLDDDENGSVILQDDDYDDGNNHIPFEDDDVYNYNDNDDDDERIEFEDDDDDDDDSIDNDSVM
B2: UGT1A9 (Homo sapiens, UniProt O60656); chain GKLLVVPMDGSHWFTMRSVVEKLILRGHEVVVVMPEVSWQLGRSLNCTVKTYSTSYTLEDLDREFKAFAHAQWKAQVRSIYSLLMGSYNDIFDLFFSNCRSLFKDKKLVEYLKESSFDAVFLDPFDNCGLIVAKYFSLPSVVFARGILCHYLEEGAQCPAPLSYVPRILLGFSDAMTFKERVRNHIMHLEEHLLCHRFFKNALEIASEILQTPVTEYDLYSHTSIWLLRTDFVLDYPKPVMPNMIFIGGINCHQGKPLPMEFEAYINASGEHGIVVFSLGSMVSEIPEKKAMAIADALGKIPQTVLWRYTGTRPSNLANNTILVKWLPQNDLLGHPMTRAFITHAGSHGVYESICNGVPMVMMPLFGDQMDNAKRMETKGAGVTLNVLEMTSEDLENALKAVINDKSYKENIMRLSSLHKDRPVEPLDLAVFWVEFVMRHKGAPHLRPAAHDLTWYQYHSLDVIGFLLAVVLTVAFITFKCCAYGYRKCLGKKGRVKKAHKSKTH
Chain of UniProt P11362 (whole entry, looked up): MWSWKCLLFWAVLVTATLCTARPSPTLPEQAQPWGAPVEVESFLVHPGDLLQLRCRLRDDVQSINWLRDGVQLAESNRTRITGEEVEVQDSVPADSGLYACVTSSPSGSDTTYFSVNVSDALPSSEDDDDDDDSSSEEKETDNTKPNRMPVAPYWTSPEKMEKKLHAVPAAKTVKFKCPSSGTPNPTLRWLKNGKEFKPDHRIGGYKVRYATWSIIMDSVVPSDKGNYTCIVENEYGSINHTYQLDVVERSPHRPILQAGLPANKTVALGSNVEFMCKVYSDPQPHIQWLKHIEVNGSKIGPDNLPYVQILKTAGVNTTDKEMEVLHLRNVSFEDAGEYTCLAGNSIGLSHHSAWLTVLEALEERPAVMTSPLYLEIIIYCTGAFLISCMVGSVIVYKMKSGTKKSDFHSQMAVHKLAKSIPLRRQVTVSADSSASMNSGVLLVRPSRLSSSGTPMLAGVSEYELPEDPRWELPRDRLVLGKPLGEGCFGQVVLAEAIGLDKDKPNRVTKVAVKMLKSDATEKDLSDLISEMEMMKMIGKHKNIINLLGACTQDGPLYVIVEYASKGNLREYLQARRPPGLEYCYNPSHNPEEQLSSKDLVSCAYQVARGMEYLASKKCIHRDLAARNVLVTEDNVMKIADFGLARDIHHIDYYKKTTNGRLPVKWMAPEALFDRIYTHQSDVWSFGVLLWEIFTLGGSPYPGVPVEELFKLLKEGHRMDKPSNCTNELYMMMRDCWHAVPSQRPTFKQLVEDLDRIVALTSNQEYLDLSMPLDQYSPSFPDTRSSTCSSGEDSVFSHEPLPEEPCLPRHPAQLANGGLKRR
Chain of UniProt P12259 (whole entry, unmodified, looked up): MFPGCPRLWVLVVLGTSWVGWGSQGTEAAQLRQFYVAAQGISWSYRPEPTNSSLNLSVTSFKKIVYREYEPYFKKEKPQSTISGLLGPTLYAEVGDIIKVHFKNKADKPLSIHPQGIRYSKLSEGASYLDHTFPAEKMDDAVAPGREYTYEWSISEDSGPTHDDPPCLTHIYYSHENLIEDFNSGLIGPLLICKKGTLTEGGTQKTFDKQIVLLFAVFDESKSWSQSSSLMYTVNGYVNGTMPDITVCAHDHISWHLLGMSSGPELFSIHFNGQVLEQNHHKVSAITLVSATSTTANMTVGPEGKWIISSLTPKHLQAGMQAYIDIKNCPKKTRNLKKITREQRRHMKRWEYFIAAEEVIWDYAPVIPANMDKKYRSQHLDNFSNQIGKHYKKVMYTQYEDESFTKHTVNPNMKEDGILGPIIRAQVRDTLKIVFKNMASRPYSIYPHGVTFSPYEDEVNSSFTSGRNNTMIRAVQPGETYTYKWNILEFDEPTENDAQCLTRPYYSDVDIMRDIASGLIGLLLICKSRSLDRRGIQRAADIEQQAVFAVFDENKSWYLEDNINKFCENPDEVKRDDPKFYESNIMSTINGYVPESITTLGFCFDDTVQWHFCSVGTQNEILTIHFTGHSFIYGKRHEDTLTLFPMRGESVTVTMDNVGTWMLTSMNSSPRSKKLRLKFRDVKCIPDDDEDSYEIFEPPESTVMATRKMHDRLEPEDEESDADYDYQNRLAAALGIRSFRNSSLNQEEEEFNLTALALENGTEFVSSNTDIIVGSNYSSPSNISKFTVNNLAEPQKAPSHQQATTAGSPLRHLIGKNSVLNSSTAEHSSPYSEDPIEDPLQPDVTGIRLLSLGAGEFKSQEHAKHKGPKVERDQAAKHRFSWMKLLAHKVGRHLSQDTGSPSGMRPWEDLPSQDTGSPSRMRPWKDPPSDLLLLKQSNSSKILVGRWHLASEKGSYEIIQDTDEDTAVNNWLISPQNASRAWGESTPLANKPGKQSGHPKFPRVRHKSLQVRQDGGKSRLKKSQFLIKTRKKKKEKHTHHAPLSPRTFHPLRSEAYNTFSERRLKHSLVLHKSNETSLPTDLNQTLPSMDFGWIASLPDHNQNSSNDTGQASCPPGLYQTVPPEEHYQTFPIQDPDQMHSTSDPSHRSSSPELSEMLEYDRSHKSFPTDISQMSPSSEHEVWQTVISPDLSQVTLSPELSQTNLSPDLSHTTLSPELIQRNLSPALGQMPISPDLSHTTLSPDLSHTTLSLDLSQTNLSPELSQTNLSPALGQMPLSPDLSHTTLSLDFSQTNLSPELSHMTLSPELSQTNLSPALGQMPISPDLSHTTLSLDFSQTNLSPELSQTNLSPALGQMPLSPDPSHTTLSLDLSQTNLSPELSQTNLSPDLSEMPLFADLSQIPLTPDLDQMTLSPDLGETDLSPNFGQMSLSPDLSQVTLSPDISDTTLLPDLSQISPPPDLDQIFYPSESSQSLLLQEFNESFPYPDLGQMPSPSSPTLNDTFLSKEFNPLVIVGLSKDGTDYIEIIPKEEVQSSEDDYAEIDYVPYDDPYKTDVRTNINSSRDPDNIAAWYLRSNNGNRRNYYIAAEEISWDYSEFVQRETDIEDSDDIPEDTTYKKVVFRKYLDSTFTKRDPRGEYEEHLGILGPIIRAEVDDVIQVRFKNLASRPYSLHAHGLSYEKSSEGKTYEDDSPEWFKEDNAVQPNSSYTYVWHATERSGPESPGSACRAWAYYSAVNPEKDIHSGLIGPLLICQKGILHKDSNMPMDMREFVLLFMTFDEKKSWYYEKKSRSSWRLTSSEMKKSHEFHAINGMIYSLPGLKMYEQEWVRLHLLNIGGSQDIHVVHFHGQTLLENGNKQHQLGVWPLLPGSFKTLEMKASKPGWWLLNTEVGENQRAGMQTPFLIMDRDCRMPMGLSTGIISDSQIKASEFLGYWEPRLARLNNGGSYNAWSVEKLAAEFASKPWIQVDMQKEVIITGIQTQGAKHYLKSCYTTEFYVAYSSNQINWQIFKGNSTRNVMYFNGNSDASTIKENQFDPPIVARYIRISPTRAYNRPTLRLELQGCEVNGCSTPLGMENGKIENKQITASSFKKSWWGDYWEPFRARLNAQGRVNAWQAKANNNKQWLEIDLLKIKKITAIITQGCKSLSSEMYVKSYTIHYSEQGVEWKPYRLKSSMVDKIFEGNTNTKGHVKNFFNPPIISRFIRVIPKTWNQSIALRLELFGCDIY
Chain of UniProt Q9H6P5 (whole entry, looked up): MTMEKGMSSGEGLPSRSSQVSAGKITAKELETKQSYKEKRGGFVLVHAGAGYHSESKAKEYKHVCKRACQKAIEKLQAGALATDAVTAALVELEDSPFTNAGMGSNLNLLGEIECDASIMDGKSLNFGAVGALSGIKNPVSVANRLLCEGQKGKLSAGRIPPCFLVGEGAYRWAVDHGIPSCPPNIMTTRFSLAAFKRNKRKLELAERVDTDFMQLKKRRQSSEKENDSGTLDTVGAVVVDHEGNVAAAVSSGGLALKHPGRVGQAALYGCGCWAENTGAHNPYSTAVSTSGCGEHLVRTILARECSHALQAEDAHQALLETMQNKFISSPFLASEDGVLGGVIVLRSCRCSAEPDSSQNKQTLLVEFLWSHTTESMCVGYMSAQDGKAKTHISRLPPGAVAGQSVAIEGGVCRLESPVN

| Molecule | target or system | assay | system | conditions | quantity | value |
| --- | --- | --- | --- | --- | --- | --- |
| YASKGKKRNPGLKIPK (MAP2K6 residues 4-17 (Homo sapiens)) | Mapk14 N159K/E160S/E163T | kinase activity, inhibitor, competitive kinase inhibition assay | peptide | added: ATP 1 mM | IC50 | 65000 nM |
| D-helical peptide inhibitor, Boc N-terminus, all D-residues, Aib, methyl ester | PSEN1/NCSTN/APH1A/PSENEN γ-secretase complex | γ-secretase Aβ40 production, inhibitor, sandwich ELISA |  |  | IC50 | 34.8 nM |
| YARRRKRRSLAINLTN (TTLL13P D-site peptide (Homo sapiens)) | Mapk14, pT180, pY182 (Rattus norvegicus, UniProt P70618) | kinase activity, inhibitor, competitive kinase inhibition assay | peptide | added: ATP 1 mM | IC50 | 760 nM |
| HSPA1A (Homo sapiens, UniProt P0DMV8) | MAPT (Homo sapiens, UniProt P10636-7) | tau aggregation, light scattering, inhibitor |  | added: ARA | IC50 | 640 nM |
| B1 (CDC34 171-270) | SKP1/CDC53/CDC4/HRT1 SCF complex (Saccharomyces cerevisiae) | Sic1 ubiquitylation, inhibitor |  | 1 min | IC50 | 16000 nM |
| FGF1 fragment Q40P/S47I/H93G/C117S, vcMMAE on N-terminal Cys (Homo sapiens) | FGFR1 (Homo sapiens, UniProt P11362) | cytotoxicity, alamarBlue viability | U2OS FGFR1 | 96 hours, added: heparin | IC50 | 40 nM |
| TFPI (Homo sapiens, UniProt P10646-1) | F5 B-domain deleted 811-1490 R709Q/R1545Q (UniProt P12259) | prothrombinase inhibition, inhibitor |  | added: enoxaparin 0.8 u/mL | IC50 | 30.3 nM |
| Trichosanthin fragment K173A (Trichosanthes kirilowii) | RPLP2 | in vitro translation inhibition | rabbit reticulocyte lysate |  | IC50 | 0.2 nM |
| B2 (UGT1A9) | COc1c(O)cc2oc(-c3ccccc3)cc(=O)c2c1O | steady-state kinetics |  | pH 7.4, 37 °C | Vmax/Km | 866 µL/min/mg |
| Ac-ISQL[Asp(vs)]-OH (KMT2A residues 2714-2718, N-acetyl, P1 Asp vinyl sulfone, free C-terminal acid; N-acetyl, P1 Asp vinyl sulfone, free C-terminal acid; Asp(vs) = vinyl sulfone at the side chain of the P1 aspartic acid) | TASP1 (Homo sapiens, UniProt Q9H6P5) | Taspase1 cleavage inhibition, inhibitor, FRET reporter assay | peptide | added simultaneously with substrate | IC50 | > 100000 nM |
| Trichosanthin fragment D176A (Trichosanthes kirilowii) | RPLP2 | in vitro translation inhibition | rabbit reticulocyte lysate |  | IC50 | 0.038 nM |
| YANQLKFRKKKLKFCK (SETD1B D-site peptide (Homo sapiens)) | Mapk14 N159K/E160S/E163T | kinase activity, inhibitor, competitive kinase inhibition assay | peptide | added: ATP 1 mM | IC50 | 30000 nM |
